Assay results collected from several papers.
Lines come from different studies, so protocols differ. Numbers after ± are the reported error.

CC[C@H](C)[C@H](NC(=O)[C@H](Cc1ccccc1)NC(=O)[C@H](CCC(=O)O)NC(=O)[C@H](CCCCNC(=O)COCCOCCNC(=O)COCCOCCNC(=O)CC[C@H](NC(=O)CCCCCCCCCCCCCCCCC(=O)O)C(=O)O)NC(=O)[C@H](C)NC(=O)[C@H](C)NC(=O)[C@H](CCC(N)=O)NC(=O)CNC(=O)[C@H](CCC(=O)O)NC(=O)[C@H](CC(C)C)NC(=O)[C@H](Cc1ccc(O)cc1)NC(=O)[C@H](CO)NC(=O)[C@H](CO)NC(=O)[C@@H](NC(=O)[C@H](CC(=O)O)NC(=O)[C@H](CO)NC(=O)[C@@H](NC(=O)[C@H](Cc1ccccc1)NC(=O)[C@@H](NC(=O)CNC(=O)[C@H](CCC(=O)O)NC(=O)C(C)(C)NC(=O)[C@@H](N)Cc1cnc[nH]1)[C@@H](C)O)[C@@H](C)O)C(C)C)C(=O)N[C@@H](C)C(=O)N[C@@H](Cc1c[nH]c2ccccc12)C(=O)N[C@@H](CC(C)C)C(=O)N[C@H](C(=O)N[C@@H](CCCNC(=N)N)C(=O)NCC(=O)N[C@@H](CCCNC(=N)N)C(=O)NCC(=O)O)C(C)C
Cmax ratio (healthy Caucasian subjects, plasma; subcutaneous, steady state, once weekly; reference: 1.0 mg over 0.5 mg): 2.13

C#C[C@]1(O)CC[C@H]2[C@@H]3CCc4cc(O)ccc4[C@H]3CC[C@@]21C
Cmax ratio (postmenopausal women with type 2 diabetes; oral, dose not given, together with: semaglutide steady state; reference: with over without semaglutide): 1.04

Cc1ccc(Sc2ccccc2N2CCNCC2)c(C)c1
Cmax (healthy women, plasma; oral, 10 mg once daily, fed, day 1): 3.4 ng/mL

COc1cccc(N2CCN(C3=Nc4c(F)cccc4[C@H](CC(=O)O)N3c3cc(C(F)(F)F)ccc3OC)CC2)c1
Cmax at steady state (healthy women, plasma; intravenous, 240 mg once daily, day 14, 30-min infusion): 15900 ± 1950 ng/mL

COc1cc(OC)c(/C=C/S(=O)(=O)Cc2ccc(OC)c(NCC(=O)O)c2)c(OC)c1
Cmax (cancer patients, phase I, plasma; oral, 140 mg twice daily, day 1 cycle 1): 200 ± 70 ng/mL

O=C(c1ccc(F)c(F)c1Nc1ccc(I)cc1F)N1CC(O)([C@@H]2CCCCN2)C1
Cmax at steady state (paediatric patients, expansion cohort, plasma; oral, 1.0 mg/kg, mean): 142 ng/mL

Cc1nc(-c2ccc(OCC(C)C)c(C#N)c2)sc1C(=O)O
Cmax ratio (healthy men, plasma; oral, 80 mg, geometric mean ratio, together with: verinurad 2.5 mg; reference: with over without verinurad): 96.7%

CC(C)(CO)c1cc2cc(NC(=O)C3(c4ccc5c(c4)OC(F)(F)O5)CC3)c(F)cc2n1C[C@@H](O)CO
Cmax ratio (healthy subjects, plasma; oral, 25 mg once daily, together with: ivacaftor 50 mg, itraconazole 200 mg; reference: with over without itraconazole): 2.83

C[C@]12C=CC(=O)C=C1CC[C@@H]1[C@@H]2[C@@H](O)C[C@@]2(C)[C@H]1C[C@H]1O[C@@H](C3CCCCC3)O[C@]12C(=O)CO
Cmax ratio (children with asthma; inhaled, ciclesonide 80 µg with spacer vs 160 µg without, steady state, dose normalized; reference: with spacer over without): 163%

CS(=O)(=O)n1cc2c(n1)CN([C@H]1CO[C@H](c3cc(F)ccc3F)[C@@H](N)C1)C2
Cmax (healthy Japanese men, plasma; oral, 25 mg once weekly, day 15): 701 nM

CC(C)(CC(=O)N1CCCC1)NCC(=O)N1C[C@@H](F)C[C@H]1C#N
Cmax at steady state (Chinese type 2 diabetes patients, plasma; oral, 200 mg once daily, multiple doses): 567 ng/mL

C[C@@H]1CCO[C@H]2Cn3cc(C(=O)NCc4ccc(F)cc4F)c(=O)c(O)c3C(=O)N12
Cmax decrease (severe renal impairment patients, plasma; oral, 50 mg single dose; reference: matched healthy subjects): 23%

Excerpt of the above:
CS(=O)(=O)n1cc2c(n1)CN([C@H]1CO[C@H](c3cc(F)ccc3F)[C@@H](N)C1)C2
Cmax (healthy Japanese men, plasma; oral, 25 mg once weekly, day 15): 701 nM
